Assay results gathered from unrelated publications.
Compare with care: the assays were run in different laboratories. ± marks the error that the study gave.

For `CC[C@H](C)[C@H](NC(=O)[C@H](CCCCN)NC(=O)CNC(=O)[C@H](CC(C)C)NC(=O)[C@H](Cc1ccccc1)NC(=O)[C@H](CCCCN)NC(=O)[C@H](CO)NC(=O)[C@H](Cc1ccccc1)NC(=O)[C@H](Cc1c[nH]c2ccccc12)NC(=O)[C@H](CCC(N)=O)NC(=O)[C@@H](NC(=O)[C@H](Cc1ccccc1)NC(=O)CCCCCNC(=O)CN1CCN(CC(=O)O)CCN(CC(=O)O)CCN(CC(=O)O)CC1)C(C)C)C(=O)N[C@@H](CCC(=O)O)C(=O)N1CCC[C@H]1C(=O)N[C@@H](CC(=O)O)C(=O)N[C@H](C(=O)N[C@@H](CO)C(=O)N[C@@H](CCC(N)=O)C(=O)N[C@H](C(=O)N[C@@H](CCC(N)=O)C(=O)N[C@@H](CC(=O)O)C(=O)N1CCC[C@H]1C(=O)N[C@@H](CC(N)=O)C(=O)N[C@@H](CC(=O)O)C(=O)N[C@@H](CCC(N)=O)C(=O)N[C@@H](Cc1ccc(O)cc1)C(=O)N[C@@H](CCC(=O)O)C(=O)N1CCC[C@H]1C(=O)N[C@@H](Cc1ccccc1)C(=O)O)C(C)C)C(C)C` [copper-64 labelled], the tissue uptake was 2.49 ± 0.4 %ID/g (C57BL/6 mice, male, tumour-free, heart; 1 h).
For `O=C([O-])CNC(=O)CN1CCN(CC(=O)NCC(=O)[O-])CCN(CC(=O)NCC(=O)[O-])CCN(CC(=O)NCC(=O)[O-])CC1.[177Lu+3]`, the tissue uptake was 0.02 ± 0.005 % injected dose/g (Sprague-Dawley rat, blood; intravenous (tail vein), dose not given, 2 h).
The tissue uptake of `CC[C@H](C)[C@H](NC(=O)[C@@H](Cc1c[nH]c2ccccc12)NC(=O)[C@@H]1CCCN1C(=O)[C@H](CCCCN)NC(=O)[C@H](CCCCN)NC(=O)CCNC(=O)CCNC(=O)CN1CCN(CC(=O)O)CCN(CC(=O)O)CCN(CC(=O)O)CC1)C(=O)N[C@@H](C[Si](C)(C)C)C(=O)O` [gallium-68 labelled] is reported as 0.84 ± 0.5 %ID/g (nude mouse HT-29 xenograft, spleen; 90 min).
With `C[C@H](O)[C@@H](NC(=O)[C@H]1CCCN1C(=O)[C@@H](CCCCN)NC(=O)[C@@H](CO)NC(=O)[C@@H](Cc1ccc(O)cc1)NC(=O)[C@@H](CC(N)=O)NC(=O)CCOCCOCCOCCNC(=O)CN1CCN(CC(=O)O)CCN(CC(=O)O)CCN(CC(=O)O)CC1)C(=O)N[C@H](CC(=O)O)C(=O)N[C@H](CCCNC(=N)N)C(=O)N[C@H](CCC(N)=O)C(=O)N[C@H](Cc1ccc(O)cc1)C(=O)N[C@H](Cc1c[nH]cn1)C(=O)N[C@H](Cc1ccccc1)C(N)=O` [copper-64 labelled] the tissue uptake was 0.89 ± 0.08 %ID/g (ex vivo gamma counting; C57BL/6J mouse, normal, small intestine; intravenous, 1.85 MBq, 60 min).
The tissue uptake of `CSCC[C@H](NC(=O)CNC(=O)[C@H](CCCCN)NC(=O)[C@H](CC(C)C)NC(=O)[C@@H]1CCCN1C(=O)[C@H](CO)NC(=O)[C@H](Cc1c[nH]cn1)NC(=O)[C@H](Cc1c[nH]c2ccccc12)NC(=O)[C@H](CCCNC(=N)N)NC(=O)[C@H](CC(C)C)NC(=O)[C@H](CCCNC(=N)N)NC(=O)[C@H](Cc1c[nH]c2ccccc12)NC(=O)[C@H](CS)NC(=O)CCCCCNC(=O)CN1CCN(CC(=O)O)CCN(CC(=O)O)CCN(CC(=O)O)CC1)C(=O)O` [copper-64 labelled] is reported as 2.18 %ID/g (ex vivo biodistribution; C57BL/6J mice bearing B16-F10 tumours, thymus; intravenous, 1.85 MBq, 2 h).
`CC[C@H](C)[C@H](NC(=O)[C@H](CCCNC(=N)N)NC(=O)[C@H](CCCCN)NC(=O)[C@H](Cc1ccc(O)cc1)NC(=O)[C@H](CC(=O)O)NC(=O)[C@H](C)NC(=O)CNC(=O)CCOCCOCCOCCNC(=O)CN1CCN(CC(=O)O)CCN(CC(=O)O)CCN(CC(=O)O)CC1)C(=O)N[C@H](C(=O)N[C@H](C(=O)N[C@@H](CCCCN)C(=O)N[C@H](C(=O)N[C@@H](CC(N)=O)C(N)=O)C(C)C)C(C)C)[C@@H](C)O` [copper-64 labelled] gave a tissue uptake of 1.56 ± 0.269 %ID/g (ex vivo gamma counting; C57BL/6J male mice, B16-F10 tumour, thymus; intravenous, 1.85 MBq, 5 min).
`O=C(CN1CCN(CC(=O)NCP(=O)([O-])[O-])CCN(CC(=O)NCP(=O)([O-])[O-])CCN(CC(=O)NCP(=O)([O-])[O-])CC1)NCP(=O)([O-])[O-].[Gd+3]` gave a tissue uptake of 0.58 ± 0.162 % injected dose/g (Sprague-Dawley rat, bone; intravenous (tail vein), dose not given, 2 h).
With `CN1Cc2cc(Cl)ccc2-n2c(nnc2C2CCN(c3cccc([18F])n3)CC2)C1` the tissue uptake was 3.07 ± 1.38 %ID/g (C57BL/6 mouse male, muscle; intravenous, 3.7 MBq, 30 min).
`CC(C)C[C@@H](NC(=O)[C@@H](CCCNC(=N)N)NC(=O)[C@@H](Cc1c[nH]cn1)NC(=O)[C@@H](Cc1c[nH]c2ccccc12)NC(=O)[C@@H](Cc1c[nH]cn1)NC(=O)[C@@H](Cc1ccccc1)NC(=O)[C@H](NC(=O)[C@@H](Cc1ccc(O)cc1)NC(=O)CNC(=O)CNC(=O)CCOCCOCCOCCNC(=O)CN1CCN(CC(=O)O)CCN(CC(=O)O)CC1)[C@H](C)O)C(=O)N[C@H](CC(N)=O)C(=O)N1CCC[C@@H]1C(=O)O` [gallium-68 labelled] has a tissue uptake of 0.78 ± 0.36 %ID/g (C57BL/6 mice, male, intestines; intravenous, 1.85 MBq, 60 min, together with: blocking antibody).
`CCCC[C@H]1C(=O)N(C)[C@@H](CCCC)C(=O)N[C@@H](CCCNC(=O)CN2CCN(CC(=O)O)CCN(CC(=O)O)CCN(CC(=O)O)CC2)C(=O)N[C@H](C(=O)NCC(N)=O)CSCC(=O)N[C@@H](Cc2ccc(O)cc2)C(=O)N(C)[C@@H](C)C(=O)N[C@@H](CC(N)=O)C(=O)N2CCC[C@H]2C(=O)N[C@@H](Cc2c[nH]cn2)C(=O)N[C@@H](CC(C)C)C(=O)N(C)CC(=O)N[C@@H](Cc2c[nH]c3ccccc23)C(=O)N[C@@H](CO)C(=O)N[C@@H](Cc2c[nH]c3ccccc23)C(=O)N1C` [gallium-68 labelled] has a tissue uptake of 4.56 ± 0.64 %ID/g (NOD/SCID mice, CHO-hPD-L1 xenograft, spleen; 60 min, together with: blocking agent 50 µg co-injected).

A few entries again:
For `O=C([O-])CNC(=O)CN1CCN(CC(=O)NCC(=O)[O-])CCN(CC(=O)NCC(=O)[O-])CCN(CC(=O)NCC(=O)[O-])CC1.[177Lu+3]`, the tissue uptake was 0.02 ± 0.005 % injected dose/g (Sprague-Dawley rat, blood; intravenous (tail vein), dose not given, 2 h).
`CC(C)C[C@@H](NC(=O)[C@@H](CCCNC(=N)N)NC(=O)[C@@H](Cc1c[nH]cn1)NC(=O)[C@@H](Cc1c[nH]c2ccccc12)NC(=O)[C@@H](Cc1c[nH]cn1)NC(=O)[C@@H](Cc1ccccc1)NC(=O)[C@H](NC(=O)[C@@H](Cc1ccc(O)cc1)NC(=O)CNC(=O)CNC(=O)CCOCCOCCOCCNC(=O)CN1CCN(CC(=O)O)CCN(CC(=O)O)CC1)[C@H](C)O)C(=O)N[C@H](CC(N)=O)C(=O)N1CCC[C@@H]1C(=O)O` [gallium-68 labelled] has a tissue uptake of 0.78 ± 0.36 %ID/g (C57BL/6 mice, male, intestines; intravenous, 1.85 MBq, 60 min, together with: blocking antibody).
